{"data": "Experimental data of several laboratories", "note": "Numbered parts are unrelated; each lists some results of a single study. Values joined by “and” are separate records of one study, mostly repeats; a detail may differ."}
{"data": "Sample 1", "cell line": "HaCaT", "concentration": "100 µM", "time": "36 h"}
{"Compound": "CN(N=O)C(=O)N[C@@H](C=O)[C@@H](O)[C@H](O)[C@H](O)CO", "viability": "93.4%"}
{"Compound": "O=C1CC[C@@H](C(=O)N2CSC[C@H]2C(=O)O)N1", "viability": "88.9%"}
{"Compound": "CO/N=C(\\C(=O)N[C@@H]1C(=O)N2C(C(=O)O)=C(COC(C)=O)CS[C@H]12)c1csc(N)n1", "viability": "107%"}
{"Compound": "COC(=O)[C@@H]1CC2=CC(=O)CC[C@]2(C)[C@@]23O[C@@H]2C[C@@]2(C)[C@@H](CC[C@@]24CCC(=O)O4)[C@H]13", "viability": "99.8%"}
{"Compound": "C[C@@H]1CC(=O)NN=C1c1ccc(NN=C(C#N)C#N)cc1", "viability": "81.4%"}
{"Compound": "C[C@]12CC[C@H](O)CC1=CC[C@@H]1[C@@H]2CC[C@]2(C)C(c3cccnc3)=CC[C@@H]12", "viability": "45.1%"}
{"Compound": "N[C@@H](Cc1ccc(O)c(O)c1)C(=O)O", "viability": "112%"}
{"Compound": "Nc1ccccc1S(N)(=O)=O", "viability": "100%"}
{"Compound": "O=C1c2c(O)cccc2Cc2cccc(O)c21", "viability": "74.4%"}
{"Compound": "Cc1cc(C)cc(OCC2CNC(=O)O2)c1 (stereo not shown)", "viability": "91%"}
{"data": "Sample 2", "target": "Serine/threonine-protein kinase N1 (PKN1, Homo sapiens, UniProt Q16512)", "read-out": "enzyme activity", "mode": "inhibitor", "concentration": "0.5 µM", "baseline": "control", "chain of UniProt Q16512 (whole entry, looked up)": "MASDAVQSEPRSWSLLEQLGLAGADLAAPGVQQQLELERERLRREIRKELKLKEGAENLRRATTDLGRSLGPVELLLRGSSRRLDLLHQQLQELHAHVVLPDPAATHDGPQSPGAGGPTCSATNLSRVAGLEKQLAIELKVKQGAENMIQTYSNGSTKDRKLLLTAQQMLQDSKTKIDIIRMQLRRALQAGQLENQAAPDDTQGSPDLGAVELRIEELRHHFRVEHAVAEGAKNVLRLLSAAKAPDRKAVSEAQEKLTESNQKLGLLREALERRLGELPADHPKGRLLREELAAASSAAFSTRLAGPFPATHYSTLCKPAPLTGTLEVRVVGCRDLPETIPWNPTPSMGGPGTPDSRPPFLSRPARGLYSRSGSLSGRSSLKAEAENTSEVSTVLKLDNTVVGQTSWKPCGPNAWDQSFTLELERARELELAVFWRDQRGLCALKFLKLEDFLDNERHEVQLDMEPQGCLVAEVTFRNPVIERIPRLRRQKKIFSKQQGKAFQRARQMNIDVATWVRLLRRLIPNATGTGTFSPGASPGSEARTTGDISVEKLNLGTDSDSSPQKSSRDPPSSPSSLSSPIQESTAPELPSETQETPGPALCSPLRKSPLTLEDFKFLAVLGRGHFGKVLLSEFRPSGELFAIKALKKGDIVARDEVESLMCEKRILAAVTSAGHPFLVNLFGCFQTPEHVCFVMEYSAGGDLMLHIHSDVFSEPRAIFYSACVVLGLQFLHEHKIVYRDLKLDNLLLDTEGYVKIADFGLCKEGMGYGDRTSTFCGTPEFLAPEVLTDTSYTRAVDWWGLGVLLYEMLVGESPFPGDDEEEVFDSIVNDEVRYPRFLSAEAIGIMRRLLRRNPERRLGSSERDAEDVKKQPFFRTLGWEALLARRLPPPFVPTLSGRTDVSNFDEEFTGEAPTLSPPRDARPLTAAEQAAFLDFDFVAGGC"}
{"SMILES": "c1ccc(-c2[nH]ncc2-c2ccnc3ccccc23)nc1", "remaining activity": "100%"}
{"SMILES": "N#Cc1c(NC(=O)c2cccc3ccccc23)sc2c1CCCC2", "remaining activity": "108%"}
{"SMILES": "Nc1cccc(-c2cc3c(Oc4cccc(O)c4)ncnc3[nH]2)c1", "remaining activity": "105%"}
{"SMILES": "O=C(NC(NC(=S)Nc1ccc(F)c([N+](=O)[O-])c1)C(Cl)(Cl)Cl)C(c1ccccc1)c1ccccc1 (stereo not shown)", "remaining activity": "92.8%"}
{"SMILES": "O=C1C(Cl)=C(N2C(=O)CCC2=O)C(=O)c2ccccc21", "remaining activity": "108%"}
{"SMILES": "N#C/C(=C\\c1ccc(O)c(O)c1)C(=O)NCc1ccccc1", "remaining activity": "97.6%"}
{"SMILES": "Cc1nc2cc3nc(-c4cccs4)cnc3cc2n1C", "remaining activity": "96.5%"}
{"SMILES": "C[C@@H]1CCN(C(=O)CC#N)C[C@@H]1N(C)c1ncnc2[nH]ccc12", "remaining activity": "16.5%"}
{"SMILES": "CCN(CC)CCNC(=O)c1c(C)[nH]c(/C=C2\\C(=O)Nc3ccc(F)cc32)c1C", "remaining activity": "71.4%"}
{"SMILES": "CCN(CC)CCNC(=O)c1c(C)[nH]c(/C=C2\\C(=O)Nc3ccc(Cl)cc32)c1C", "remaining activity": "36.5%"}
{"SMILES": "Cc1cc2ncc(-c3ccccc3)nc2cc1C", "remaining activity": "92.5%"}
{"SMILES": "CCOc1nc(NC(=O)Cc2cc(OC)ccc2OC)cc(N)c1C#N", "remaining activity": "104%"}
{"SMILES": "CCN(CC)C(=O)c1ccc(Nc2nc(OCC3CCCCC3)c3[nH]cnc3n2)cc1", "remaining activity": "78.9%"}
{"SMILES": "COc1cc2ncnc(Nc3cccc(Cl)c3)c2cc1OC", "remaining activity": "96.8%"}
{"SMILES": "COc1cc2ncnc(Nc3ccc(O)c(Br)c3)c2cc1OC", "remaining activity": "95.6%"}
{"SMILES": "Cc1cn(-c2cc(NC(=O)c3ccc(C)c(Nc4nccc(-c5cccnc5)n4)c3)cc(C(F)(F)F)c2)cn1", "remaining activity": "102%"}
{"SMILES": "c1ccc(-c2cnc(Nc3ccc(OCCN4CCCC4)cc3)s2)cc1", "remaining activity": "94.8%"}
{"SMILES": "O=c1cc(-c2cccc3c2Sc2ccccc2S3)oc(N2CCOCC2)c1", "remaining activity": "94.4%"}
{"SMILES": "Ic1cccc(CSc2nnc(-c3ccncc3)o2)c1", "remaining activity": "98.6%"}
{"SMILES": "Cn1nc2c3c(cccc31)C(=O)c1ccccc1-2", "remaining activity": "101%"}
{"SMILES": "COc1cc2c(cc1OC)-c1[nH]nc(Nc3cccc(F)c3)c1C2", "remaining activity": "106%"}
{"SMILES": "CN(C)C[C@H]1CCn2c(c(C3=C(c4cn(C)c5ccccc45)C(=O)NC3=O)c3ccccc32)C1", "remaining activity": "7.06%"}
{"SMILES": "O=C1c2ccccc2-c2n[nH]c3cccc1c23", "remaining activity": "90.6%"}
{"SMILES": "CN([C@@H](Cc1ccc(OS(=O)(=O)c2cccc3cnccc23)cc1)C(=O)N1CCN(c2ccccc2)CC1)S(=O)(=O)c1cccc2cnccc12", "remaining activity": "105%"}
{"SMILES": "O=C(Nc1cccc(Nc2nccc(Nc3cccc(C(F)(F)F)c3)n2)c1)C1CC1", "remaining activity": "93.3%"}
{"data": "Sample 3", "cell line": "mouse MPNST tumor cells", "technique": "high-content nuclear imaging", "refers to": "cell number", "concentration": "10 µM", "time": "12 h", "notes": "mean of 2 replicates", "baseline": "plate mean", "direction": "higher = more cells"}
{"SMILES": "CCCc1cc(C)[nH]c(=O)c1CNC(=O)c1cc(-c2ccc(N3CCN(C(C)C)CC3)nc2)cc2c1cnn2C(C)C", "nuclei count": "-4.98 z-score"}
{"SMILES": "O=C(NC[C@H](O)CN1CCc2ccccc2C1)c1cc(NC2COC2)ncn1", "nuclei count": "1.38 z-score"}
{"SMILES": "Nc1nnc(-c2cccc(Cl)c2Cl)c(N)n1", "nuclei count": "0.529 z-score and 0.656 z-score"}
{"SMILES": "CC(=Nc1ccccc1N)c1c(C)cc(=O)n(O)c1O", "nuclei count": "-0.263 z-score"}
{"SMILES": "COc1cc2ncnc(Nc3ccc(F)c(Cl)c3)c2cc1NC(=O)/C=C/CN1CCCCC1", "nuclei count": "-6.34 z-score"}
{"SMILES": "OCCNC1CCCc2c1[nH]c1ccc(-c3ccccc3)cc21 (stereo not shown)", "nuclei count": "-4.9 z-score"}
{"SMILES": "O=C(O)C[C@H](O)C[C@H](O)/C=C/c1c(C2CC2)nc2ccccc2c1-c1ccc(F)cc1", "nuclei count": "-4.46 z-score"}
{"SMILES": "CCCCC1C(=O)N(c2ccccc2)N(c2ccccc2)C1=O", "nuclei count": "0.327 z-score and 0.375 z-score"}
{"SMILES": "CCCCCCC(=O)OC1CC(C)(C)NC(C)(C)C1", "nuclei count": "0.525 z-score"}
{"data": "Sample 4", "target": "5-hydroxytryptamine receptor 1E (HTR1E, Homo sapiens, UniProt P28566)", "read-out": "ligand displacement", "technique": "radioligand", "concentration": "10 µM", "chain of UniProt P28566 (whole entry, looked up)": "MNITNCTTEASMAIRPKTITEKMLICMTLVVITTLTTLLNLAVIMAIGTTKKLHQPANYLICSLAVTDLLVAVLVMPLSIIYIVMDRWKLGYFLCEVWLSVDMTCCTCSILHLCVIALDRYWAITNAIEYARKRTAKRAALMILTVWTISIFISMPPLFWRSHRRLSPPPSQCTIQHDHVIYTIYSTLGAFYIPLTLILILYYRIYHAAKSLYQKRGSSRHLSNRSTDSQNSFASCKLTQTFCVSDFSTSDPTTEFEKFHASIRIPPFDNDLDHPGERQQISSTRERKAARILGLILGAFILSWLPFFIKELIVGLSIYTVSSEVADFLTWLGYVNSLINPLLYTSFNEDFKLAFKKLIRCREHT"}
{"Compound": "CC1=C(C#N)[C@@H](c2ccc3[nH]nc(C)c3c2)C(C#N)=C(c2ccc(Cl)cc2)N1", "inhibition [%]": -3.84}
{"Compound": "CN(C)C(=O)Cn1cc(-c2nc(C3(c4ccc(-c5cnc(N)nc5)cc4)CC3)no2)cn1", "inhibition [%]": -7.33}
{"Compound": "CCCCN(CCCC)C(=O)CN1C[C@H](c2cc(OC)c3c(c2)OCO3)[C@@H](C(=O)O)[C@@H]1CC(C)(C)CCC", "inhibition [%]": 3.64}
{"Compound": "CN([C@@H]1CCc2c(CC(=O)O)c3cc(S(C)(=O)=O)ccc3n2C1)S(=O)(=O)c1ccc(F)cc1", "inhibition [%]": 5.5}
{"Compound": "O=C([C@H]1C[C@H](O)CN1c1ccc(Cl)cc1)N1CC2COCC(C1)N2Cc1ccc(Cl)cc1", "inhibition [%]": -25.4}
{"Compound": "c1ccc(N2CCN(Cc3nc4ccccc4[nH]3)CC2)nc1", "inhibition [%]": -8.72}
{"Compound": "C[C@H](NC(=O)Nc1cc2[nH]ncc2c(CO)n1)c1ccccn1", "inhibition [%]": -8.44}
{"Compound": "O=C(Nc1cccnn1)N1CCC(=Cc2cccc(Oc3ccc(C(F)(F)F)cn3)c2)CC1", "inhibition [%]": 19}
{"Compound": "CCOCCn1cc(C(=O)Nc2ccc(-n3nc(-c4cccnc4)cc3C(F)(F)F)cn2)ccc1=O", "inhibition [%]": -4.17}
{"Compound": "CN1CCN(C(=O)C(C)(C)c2ccc(C(=O)Nc3cn4cc(-c5ccncc5)ccc4n3)cc2)CC1", "inhibition [%]": -1.52}
{"Compound": "O=C(c1ccc(F)cc1)N1CC(COc2ccc(Br)cc2)(C(=O)O)C1", "inhibition [%]": 12.2}
{"Compound": "COc1ccc2cc(OCC3(C(=O)O)CN(C(=O)c4ccc(F)cc4)C3)ccc2c1", "inhibition [%]": 11}
{"Compound": "CNCc1ccccc1-c1csc([C@H](C)Nc2nc(C)nc3cc(OC)c(OC)cc23)c1", "inhibition [%]": 10.8}
{"Compound": "Cc1nccc(COC(=O)N2C[C@@H]3[C@@H](CNC(=O)c4ccc5[nH]nnc5c4)[C@@H]3C2)n1", "inhibition [%]": 31.8}
{"note": "A few entries again (sample 1):"}
{"Compound": "N[C@@H](Cc1ccc(O)c(O)c1)C(=O)O", "viability": "112%"}
{"Compound": "COC(=O)[C@@H]1CC2=CC(=O)CC[C@]2(C)[C@@]23O[C@@H]2C[C@@]2(C)[C@@H](CC[C@@]24CCC(=O)O4)[C@H]13", "viability": "99.8%"}
{"Compound": "C[C@@H]1CC(=O)NN=C1c1ccc(NN=C(C#N)C#N)cc1", "viability": "81.4%"}
{"Compound": "Cc1cc(C)cc(OCC2CNC(=O)O2)c1 (stereo not shown)", "viability": "91%"}
